{"data": "Experimental data pooled from the literature", "note": "Each line is one published result; not all experiments were run side by side. Several values in a cell are separate wells, animals, samples, runs or records. Numbers after ± are the reported error."}
{"SMILES": "CCCCC1(CCCC)CN(c2ccccc2)c2cc(SC)c(OCC(=O)N[C@@H](C(=O)NCC(=O)O)c3ccccc3)cc2S(=O)(=O)C1", "assay": "measured: 7α-hydroxy-4-cholesten-3-one", "test system": "human, plasma", "setting": "15 mg once daily, day 8", "measurement": "plasma C4", "result": "69.3 ng/mL"}
{"SMILES": "Cc1c(Cl)c(C)[n+]([O-])c(Cl)c1-c1noc(-c2cc(O)c(O)c([N+](=O)[O-])c2)n1", "assay": "glucuronidation, substrate", "test system": "human intestinal microsomes", "measurement": "Vmax", "result": "111 ± 44.5 pmol/min/mg protein"}
{"SMILES": "N#Cc1ccn2c(-c3ccncc3)c(-c3ccc(F)cc3)nc2c1", "assay": "kinase binding, competitor, MIB/MS competition, measured: CTK1", "test system": "Candida albicans cell lysate", "setting": "10 µM", "how to read": "reference: DMSO", "measurement": "log2 fold change", "result": -0.144}
{"SMILES": "N=C(N)NCCC[C@H](NC(=O)[C@H](CCCNC(=N)N)NC(=O)[C@H](CCCCN)NC(=O)[C@H](CCC(N)=O)NC(=O)[C@H](CCCCN)NC(=O)[C@H](Cc1ccc(O)cc1)NC(=O)[C@@H](N)CCCCN)C(=O)N[C@@H](CO)C(=O)N[C@@H](Cc1ccc(O)cc1)C(=O)N[C@@H](CCCCN)C(=O)O", "test system": "dentin hypersensitivity patients aged 30-40 years", "setting": "5 µg/tooth, day 36, unit not given", "how to read": "reference: baseline", "measurement": "VAS change", "result": "-41.3 ± 29.5"}
{"SMILES": "CCCCN1C[C@H](O)[C@@H](O)[C@H](O)[C@H]1CO", "assay": "barrier function (TEER)", "test system": "human ileal GI microtissue EpiIntestinal-FT", "measurement": "IC15", "result": "> 100 µM"}
{"SMILES": "CC(C)NCC(O)c1ccc(O)c(O)c1 (centres unmarked)", "test system": "ventricular cardiomyocytes, C57BL/6 mouse", "setting": "dose not given, 0.432 s", "measurement": "sarcomere length", "result": "1.72 µm"}
{"SMILES": "COc1ccccc1[C@H](Cn1c(=O)n(C(C)(C)C(=O)O)c(=O)c2c(C)c(-c3ncco3)sc21)OC1CCOCC1", "assay": "[1-13C]acetate infusion, isotopomer analysis", "test system": "overweight or obese healthy men, plasma VLDL-TG palmitate", "setting": "oral, 200 mg single dose, 5 h post-dose, with: oral fructose", "measurement": "fractional hepatic DNL", "result": "5.2 % new palmitate"}
{"SMILES": "N#CCC1CCN(c2nc(Nc3ccc(N4CCC(O)CC4)cc3)c3c(=O)[nH]ncc3n2)CC1", "assay": "Olink multiplex", "test system": "human, serum", "setting": "80 mg, day 15, unit not given", "how to read": "reference: baseline", "measurement": "osteopontin level change", "result": -1.26}
{"SMILES": "OC(CCN1CCCCC1)(c1ccccc1)C1CC2C=CC1C2 (centres unmarked)", "assay": "resting-state EEG", "test system": "healthy elderly humans", "setting": "oral, 4 mg, eyes closed, LS mean", "measurement": "EEG Alpha2-power Pz-O2", "result": "5.1 µV²"}
{"SMILES": "CCOc1cc(/C=C2\\CN(C(C)=O)CC3=C2OC(N)=C(C#N)C3c2ccc(O)c(OCC)c2)ccc1O (centres unmarked)", "test system": "rats, DMBA-induced mammary tumours", "setting": "dose not given, day 21", "measurement": "tumour volume", "result": "0.15 ± 0.006 cm3"}
{"SMILES": "CCCOc1ccc(-c2ccc(C#N)cc2)cc1", "assay": "proteomics, measured: Slc16a10", "test system": "rat placenta", "setting": "concentration not given, uterine perfusion, all three doses", "measurement": "protein level", "result": "decreased"}
{"SMILES": "C[C@H]1C[C@H]2CSC(N)=N[C@@]2(c2nc(NC(=O)c3ccc(OC(F)F)cn3)cs2)CO1", "test system": "healthy adults, fed, plasma", "setting": "oral, 200 mg single dose, 6 h", "how to read": "reference: baseline, placebo-adjusted", "measurement": "plasma Aβx-40 change", "result": "-59.4%"}
{"SMILES": "CCN1CCN(Cc2ccc(Nc3ncc(F)c(-c4cc(F)c5nc6n(c5c4)[C@H](C)CCC6)n3)nc2)CC1", "assay": "RECIST v1.1", "test system": "advanced solid tumour patients", "setting": "300 mg, Phase Ia monotherapy", "measurement": "disease control rate", "result": "66.7%"}
{"SMILES": "O=C(O)CNC(=O)Cc1ccccc1", "test system": "ventricular cardiomyocytes, C57BL/6 mouse", "setting": "dose not given, 0.2 s", "measurement": "sarcomere length", "result": "1.62 µm"}
{"SMILES": "NC(=O)c1cnc2[nH]ccc2c1N[C@@H]1[C@@H]2CC3C[C@H]1C[C@@](O)(C3)C2", "assay": "flow cytometry, measured: CD8+ central memory T cells", "test system": "Japanese healthy subjects, peripheral blood", "setting": "oral, 30 mg twice daily, day 7", "measurement": "change from baseline", "result": "1.15%"}
{"SMILES": "[Cl-].[Cl-].[Pt+2].[Ru+2].c1ccc(-c2nc3ccccc3nc2-c2ccccn2)nc1.c1cnc2c(c1)ccc1cccnc12.c1cnc2c(c1)ccc1cccnc12", "setting": "concentration not given, first substitution step, with: guanosine 5'-monophosphate", "measurement": "activation enthalpy", "result": "33 ± 2 kJ/mol"}
{"SMILES": "Cc1cn([C@@H]2O[C@H](CO)[C@@H](O)[C@H]2O)c(=O)nc1N", "target or system": "OCI-Ly1", "setting": "0.1 µM, 120 h", "measurement": "viability", "result": "87.9%"}
{"SMILES": "COCCOc1cnc2ccn([C@H](C)c3nnc4c(F)cc(-c5cnn(C)c5)cn34)c(=O)c2c1", "test system": "advanced solid tumour patients", "setting": "dose not given", "measurement": "objective response rate", "result": "9.9%"}
{"SMILES": "O=C(O)CCc1nccc2c3ccccc3n(Cc3ccc(C4CC4)cc3)c12", "test system": "mouse, acute hyperuricaemia model, serum", "setting": "oral, 2 mg/kg, individual animal data", "measurement": "serum uric acid", "result": "942 µM and 621 µM and 850 µM and 990 µM and 683 µM"}
{"SMILES": "Cc1ccc(NC(=O)CCCCCC(=O)Nc2ccccc2N)cc1", "target or system": "OCI-Ly1", "setting": "0.5 µM, 120 h", "measurement": "viability", "result": "150%"}
{"note": "Some of these lines once more:"}
{"SMILES": "CCCCN1C[C@H](O)[C@@H](O)[C@H](O)[C@H]1CO", "assay": "barrier function (TEER)", "test system": "human ileal GI microtissue EpiIntestinal-FT", "measurement": "IC15", "result": "> 100 µM"}
{"SMILES": "CC(C)NCC(O)c1ccc(O)c(O)c1 (centres unmarked)", "test system": "ventricular cardiomyocytes, C57BL/6 mouse", "setting": "dose not given, 0.432 s", "measurement": "sarcomere length", "result": "1.72 µm"}
